# Assay results from different studies.
# Each numbered part is a random draw from the data of one study; scales do not carry over between parts.

# Set 1 — method: universal PBM; molecule type: double-stranded DNA, one strand shown; matrix: in vitro; concentration: 600 nM; reading: higher = stronger binding
# Target: Sal-like protein 4, full length isoform A (SALL4, Homo sapiens, UniProt Q9UJQ4, residues 1-1053)
# Chain of UniProt Q9UJQ4 (whole entry, looked up): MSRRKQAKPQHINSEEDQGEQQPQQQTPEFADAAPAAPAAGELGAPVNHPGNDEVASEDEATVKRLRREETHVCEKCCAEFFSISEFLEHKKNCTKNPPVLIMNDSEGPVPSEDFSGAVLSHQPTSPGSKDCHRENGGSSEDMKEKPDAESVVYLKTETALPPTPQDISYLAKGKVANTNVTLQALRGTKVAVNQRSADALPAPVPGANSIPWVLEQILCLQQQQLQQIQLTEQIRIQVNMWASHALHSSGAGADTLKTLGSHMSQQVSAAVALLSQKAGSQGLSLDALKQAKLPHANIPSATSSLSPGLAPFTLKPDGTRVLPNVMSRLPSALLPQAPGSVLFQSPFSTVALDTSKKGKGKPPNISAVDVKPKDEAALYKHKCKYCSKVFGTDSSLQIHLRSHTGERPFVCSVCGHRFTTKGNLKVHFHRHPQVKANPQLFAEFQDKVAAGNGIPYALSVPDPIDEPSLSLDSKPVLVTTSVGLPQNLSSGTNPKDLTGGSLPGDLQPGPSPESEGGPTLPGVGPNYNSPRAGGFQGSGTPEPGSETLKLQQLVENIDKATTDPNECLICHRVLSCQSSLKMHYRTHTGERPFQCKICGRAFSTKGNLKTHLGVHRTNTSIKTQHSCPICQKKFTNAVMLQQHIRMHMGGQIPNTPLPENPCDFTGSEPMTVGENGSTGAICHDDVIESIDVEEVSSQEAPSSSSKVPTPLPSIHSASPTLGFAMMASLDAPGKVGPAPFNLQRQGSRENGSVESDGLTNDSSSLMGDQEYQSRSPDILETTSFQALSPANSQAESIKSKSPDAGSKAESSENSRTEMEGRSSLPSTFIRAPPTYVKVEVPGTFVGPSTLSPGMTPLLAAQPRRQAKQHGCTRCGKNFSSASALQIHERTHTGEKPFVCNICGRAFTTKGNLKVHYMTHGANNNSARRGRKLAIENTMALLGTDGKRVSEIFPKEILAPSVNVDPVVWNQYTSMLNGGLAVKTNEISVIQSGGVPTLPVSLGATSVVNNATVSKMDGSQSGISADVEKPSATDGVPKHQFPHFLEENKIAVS
# Setting: 8-mer, flanks averaged, mean of replicates
Oligonucleotide,E-score
CTAGTGCA,0.127
CGTGTATC,-0.0704
CCTCGTGC,-0.0968
ATACCAAC,0.136
GACGCCAC,-0.297
CGCTCGGC,-0.399
CATTATTC,0.0959
ACGAAATG,0.0267
CCATCCGC,-0.168
GGGATCCA,-0.172
CTATGCTA,0.18
GACCCAGA,-0.294
CAGTTTCC,-0.0795
CCGCGCGG,-0.294
CTATCCGC,-0.119
TATCACCA,0.146
ACGATCGC,-0.0646
CGAATTTC,0.202
GTGGTAGA,-0.138
ACACTCGG,-0.135

# Set 2 — method: RNA Bind-n-Seq; molecule type: RNA; matrix: in vitro; concentration: 200 nM; setting: whole 134-nt RNA, ends assumed; together with: 150 mM LiCl; relative to: input library; reading: higher = stronger binding; library: 7-deaza-guanosine replaces G
# Target: Ras GTPase-activating protein-binding protein 1, full length (G3BP1, Homo sapiens, UniProt Q13283)
# Chain of UniProt Q13283 (whole entry, looked up): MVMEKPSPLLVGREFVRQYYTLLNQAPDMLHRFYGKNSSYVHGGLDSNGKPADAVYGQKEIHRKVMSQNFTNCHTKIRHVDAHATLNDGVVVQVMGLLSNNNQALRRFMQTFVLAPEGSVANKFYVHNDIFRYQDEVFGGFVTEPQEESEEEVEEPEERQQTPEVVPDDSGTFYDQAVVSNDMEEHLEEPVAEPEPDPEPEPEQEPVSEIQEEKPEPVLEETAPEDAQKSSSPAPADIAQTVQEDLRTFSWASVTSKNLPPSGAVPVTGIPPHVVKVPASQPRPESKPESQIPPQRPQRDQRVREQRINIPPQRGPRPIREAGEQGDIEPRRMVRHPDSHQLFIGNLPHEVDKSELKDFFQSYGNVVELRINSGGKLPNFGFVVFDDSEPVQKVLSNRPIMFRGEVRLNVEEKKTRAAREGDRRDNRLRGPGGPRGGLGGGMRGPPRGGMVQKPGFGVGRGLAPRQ
# All sequences stand within: GGGAGUUCUACAGUCCGACGAUC … UGGAAUUCUCGGGUGUCAAGG
Oligonucleotide,log2 enrichment
UAACUUUAGAGGAGGAUCUGAUGGAUAUGGCAGUGGACCUGGAUUUGGGGAUGGCUAUAAUGGGUAUGGAGGAGGACCUGGAGGUGGCAA,-0.269
UAACUUUAGAGGAGGAUCUGCUGGAUAUGGCAGUGGACGUGGAUUUGGGGAUGGCUAUAAUGGGUAUGGAGGAGGACCUGGAGGUGGCAA,0.0106
CAGUUUAAGAGGGGUUUCAUGCAAGGGCAUGUAAAUAGACAAGAAAAAGAAGAAAAAGAAGCAAUAUAUAAAGAACGUUGGCCAGAUUAU,0.163
UGUUUAAUAAACGUGAAGAUGUCUCGCAGUCCUGAUGCGAAGGAAGACCCUGUGGAGUGCCCUCUUUGCAUGGAGCCCUUGGAGAUAGAU,-1.48
UCCUGUGCUACACAUCGUAUGUACCGAAUCGGGGUUUUUGGGGAAAGGGGUUUUUGGGGAAAGUAUUAUGUUACGCCGUUCGGAUCUGCA,0.0864
UCAAGUCCUGUGCUACACAUCGUAUGUACCGAAUCGGUUUGGUUUGGGUUUGGGAAAGUAUUAUGUUACGCCGUUCGGAUCUGCACUUCC,-1.1
AAGUCCUGUGCUACACAUCGUAUGUACCGAAUCGGGAAAGGGUUUGGGAAAAAGGGAAAGUAUUAUGUUACGCCGUUCGGAUCUGCACUU,-1.24
CUGUGCUACACAUCGUAUGUACCGAAUCGGAAAAAAAGGGGAAAAAAAGGGAAAAAAAGGGGAAAGUAUUAUGUUACGCCGUUCGGAUCU,0.0286
CCUCAAGUCCUGUGCUACACAUCGUAUGUACCGAAUCGGGCGGGGCGGCGGGAAAGUAUUAUGUUACGCCGUUCGGAUCUGCACUUCCAG,0.052
UCCUGUGCUACACAUCGUAUGUACCGAAUCGGGGUUUGGGGUUUGGGGAAAAAAAGGGGAAAGUAUUAUGUUACGCCGUUCGGAUCUGCA,-0.577
UCCUGUGCUACACAUCGUAUGUACCGAAUCAAACCCCCAAAUUUUUUUAAACCCCCAAAAAAGUAUUAUGUUACGCCGUUCGGAUCUGCA,1.52

# Set 3 — method: RNA Bind-n-Seq; molecule type: RNA; matrix: in vitro; concentration: not given; relative to: input RNA pool; reading: higher = stronger binding
# Target: RING finger protein unkempt homolog, zinc fingers 1-6, GST-SBP tag (UNK, Homo sapiens, UniProt Q9C0B0, residues 30-357)
# Chain of UniProt Q9C0B0 (30-357, looked up): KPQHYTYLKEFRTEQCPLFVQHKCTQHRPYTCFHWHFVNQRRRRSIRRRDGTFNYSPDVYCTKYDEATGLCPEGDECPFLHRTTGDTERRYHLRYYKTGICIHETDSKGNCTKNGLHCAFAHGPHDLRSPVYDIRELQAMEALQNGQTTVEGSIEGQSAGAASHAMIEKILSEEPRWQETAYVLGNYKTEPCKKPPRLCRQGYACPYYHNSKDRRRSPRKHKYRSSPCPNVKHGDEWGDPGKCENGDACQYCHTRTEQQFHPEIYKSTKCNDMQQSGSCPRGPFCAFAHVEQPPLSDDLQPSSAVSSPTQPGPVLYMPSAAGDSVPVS
# Setting: RNA with constant flanks, human-mouse chimeric sites, ends assumed
# All sequences stand within: GGGAGUUCUACAGUCCGACGAUC … CAACAGAGGAUUGAGCAUCA
Oligonucleotide,bound/input enrichment [ratio]
AAAGUGAUAACCAUGUUUGUCCAACGACAGGUAUUUUCGGAGAGCAAAGAUGAGAUUGCGUUAGUCCUCUAUGGCACAGAUGGCACUGACAAUCCCCUUGCUGGCAAGGACCAGUAUCAG,0.188
UGUAGUUUCGCGGUUCAGGCUUUGUGUGUAGUUCACUUACGGUAUUAAAUUAUUAUUCUGCUUAGCUUAUAAUAAGGAUAAUUGCAUUUAAAGAGGUUACUGAAUGUUGUUAUUGUUCUU,1.39
GGUGGGGGGUUGUCAUUCGUUUGAGCUGCUGAUUUUCAUGAGUCGCCUUCAAAACUCUCGUGUAGGGUUGACAAUGUAAGGGGUGGGGGGAUCCAGCUUAUUCUUUUAUUUUCAAGUCCA,0.589
AAUUUCCUGUCAUACUUUUUAGACAUUCACAUCAGACUUACAGAGCACCUGGCCACAUUCUAGGUUUGUGUUAUUUCUCAGCUAUGGGGGUAUGAUUAGAGUGAAAAUGCUUAACUAAUG,1.55
GAUCAUGAACCACCAUCAGAAAUGAAGAUGAGAUUACCCAAGACGAGCAAAACAGCUAGCACUAGAAAAAGUAAACUUAACCUUGCAGAGUUCCUUAAUGAAGAUACAAGUUAAGAGAGC,1.62
GCUCUUGGGAAUGUAAUAAGUGCCUUGGGGGACAAGAGCAAGAGAGCCACCCAUGUCCCCUAUAGAGACUCUAAGCUGACAAGACUCUUGCAGGAUUCCCUUGGGGGUAACAGCCAAACC,0.148
CAGACUGUGUCAUACUUUUUAGACAUUCACAUCAGACUUACAGAGCACCUGGCCACAUUCUAGGUUUGUGUUAUUUCUAAGCCUUUUAUAUGAUCAAAUGAGAACACUGCUUAACUAAUG,0.505
UAUAAUAAUCAUGAAAUUCGUUCCGGGAAACAUAUUGGUGUCUGCAUCUCAGUUGCCAACAAUAGGCUUUUUGUGGGCUCGAUUCCUAAGAGUAAAACCAAGGAGCAGAUUCUUGAGGAA,3.51
AUAAAGGCUAUGUUGAGUGGUCCAGGUCAGUUUGCUGAGAAUGAAACCAAUGAGGUCAAUUUUAGAGAGAUACCUUCACAUGUGCUAUCAAAAGUGUGCAUGUAUUUUACCUACAAGGUC,0.114
AAAGCCCUUGAAGAAAAAAAAAACUCGAACAGAUUUGACAAGGGUAGCCAGCUUGGAGUCUAGCAACUUGCCAAUGUGUUUACCAAUCUGGGGGCUUUGUUUUUCUUUCUUCUUUCAAAU,0.301
GAUGAUAAUCACACAAACAAGUCACUGUUACAUGACCAGAGUUGUACUUCUUUUCCUGAUUAGUAUUCUCCCUGGAACCACUGGUCAAGGGGAAUCAAGACGACAAGAACCCGGGGACUU,0.155

# Set 4 — method: protein binding microarray; molecule type: double-stranded DNA, one strand shown; matrix: in vitro; concentration: not given; relative to: not given; reading: higher = stronger binding
# Target: Histone acetyltransferase KAT6A, winged helix 2, GST fusion (KAT6A, Homo sapiens, UniProt Q92794, residues 85-181)
# Setting: 8-mer, flanks averaged, mean of 2 arrays, mostly near background
# Construct (chain): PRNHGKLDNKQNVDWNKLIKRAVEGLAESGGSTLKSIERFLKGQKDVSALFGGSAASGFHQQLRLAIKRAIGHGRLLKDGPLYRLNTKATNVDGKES
Oligonucleotide,E-score
ACGCACTC,0.00912
GTCACGGA,0.0228
CGTTTGCC,0.107
AATCACAA,-0.19
CATACTAA,0.111
ACACAGGA,-0.149
TAGCAACA,0.144
ATATGATG,0.108
ACGGTACT,-0.0777
AGTTGCGG,0.154
AAACCGAA,0.166
CTTCCTTC,-0.0818
CATGCGTA,-0.0575
CCGGCCCG,0.252
ACGTTACA,0.046
AGCTACGC,0.143
AAGACCTT,-0.0598
GCAGGAAC,-0.055
ATTCCGGA,0.061
